Results pooled from the literature.
Lines come from different studies, so protocols differ. ± gives the spread as reported.

Structure (SMILES) = CCn1cc(-c2cc(Cn3ccoc3=N)cc3c2CCN([C@@H](C)c2cc(OC)ccn2)C3=O)c(C(F)(F)F)n1; cell line = JHOM1; assay = cell growth; conditions = 120 h; EC50 = 14.1 nM
Structure (SMILES) = C[C@]12CCCN1CC1=NNC(=O)c3cc(F)cc4[nH]c2c1c34; cell line = WiDr colorectal cancer cells; assay = cell viability; conditions = concentration not given, together with: with temozolomide; EC50 = > 3000 nM
Structure (SMILES) = CN(C)[C@@H]1CCN(C2=NC(=O)/C(=C\c3ccccc3O)S2)C1; cell line = NG108-15; assay = intracellular chloride reduction, Clomeleon fluorescence; conditions = 5 h; EC50 = 1130 nM
Structure (SMILES) = N#Cc1[nH]nnc1-c1cccc(-c2cc(F)cc(C(F)(F)F)c2)c1; cell line = CHO cells expressing NaCT; assay = TCA cycle acceleration, activator, [14C]citric acid metabolism; EC50 = 340 nM
Structure (SMILES) = C[C@H]1CNCCN1c1nccc(-c2noc3c2CCC[C@@]32CCCc3sc(N)c(C#N)c32)n1; cell line = Ba/F3, IL3-dependent; assay = cell proliferation; conditions = 72 h, together with: IL3; EC50 = 3440 nM
Structure (SMILES) = C[C@]1(c2nc3c(C(N)=O)cccc3[nH]2)CCCN1; cell line = CAPAN-1 (BRCA2-deficient); assay = cell proliferation, CellTiter-Glo; conditions = 168 h; EC50 = 9400 nM
Structure (SMILES) = c1cc(N2CCCC2)ccc1-c1cc2ncc(OCC3CCNCC3)nc2cc1-c1ccc(N2CCCC2)cc1; cell line = Kasumi-1; assay = cell growth, XTT; conditions = 7 days; EC50 = 8500 ± 320 nM
Structure (SMILES) = O=C1N=C(N2CCCC2)S/C1=C\c1ccccc1O; cell line = NG108-15; assay = intracellular chloride reduction, Clomeleon fluorescence; conditions = 5 h; EC50 = 2800 nM
Structure (SMILES) = CC(=O)Nc1nnc(N2CCN([C@@H](C)c3ccc4c(c3)OCO4)CC2)s1; cell line = PBMC; assay = protein O-GlcNAcylation; system = human whole blood ex vivo; conditions = 2 h, average of 7 donors; EC50 = 1980 nM
Structure (SMILES) = O=C1N=C(N2CCCCN2)S/C1=C\c1cc(F)ccc1O; cell line = NG108-15; assay = intracellular chloride reduction, Clomeleon fluorescence; conditions = 5 h; EC50 = 318 nM
Structure (SMILES) = c1cc(N2CCCCC2)ccc1Nc1cc2ncc(OCC3CCNCC3)nc2cc1-c1ccc(N2CCCCC2)cc1; cell line = Kasumi-1; assay = cell growth, XTT; conditions = 7 days; EC50 = 3400 ± 70 nM
Structure (SMILES) = COc1ccccc1NC(=S)N[C@@H](NC(=O)c1cccc(Br)c1)C(Cl)(Cl)Cl; cell line = MEF with TRE-FLAG-LMNB1; assay = LMNB1 reduction, high-content screening; EC50 = > 250000 nM
Structure (SMILES) = CCn1cc(-c2cc(Cn3ccnc3)cc3c2CCN([C@H](c2cc(OC)ccn2)C2CC2)C3=O)c(C(F)(F)F)n1; cell line = KP-4; assay = cell growth, inhibitor; conditions = 120 h; EC50 = 300 nM
Structure (SMILES) = CC1CC(c2ccccc2)n2nc(N)nc2N1 (stereo not drawn); cell line = MEF with TRE-FLAG-LMNB1; assay = LMNB1 reduction, high-content screening; EC50 = > 250000 nM
Structure (SMILES) = c1ccc(Oc2ccc(Nc3ccc4ncc(OCC5CCNCC5)nc4c3)cc2)cc1; cell line = Kasumi-1; assay = cell growth, XTT; conditions = 7 days; EC50 = 830 ± 130 nM
Structure (SMILES) = CCOc1ccc(N([C@@H](C)C(=O)Nc2ccc(Br)c(C)c2)S(C)(=O)=O)cc1; cell line = MEF with TRE-FLAG-LMNB1; assay = LMNB1 reduction, high-content screening; EC50 = > 250000 nM
Structure (SMILES) = CCCN(c1ccc(OC)cc1)S(=O)(=O)C1CC2OC1C(c1ccc(O)cc1)=C2c1ccc(O)cc1 (stereo not drawn); cell line = MCF7 3xERE-luc, steroid-deprived; assay = ERE luciferase reporter, agonist; EC50 = 316 nM
Structure (SMILES) = COc1cccc(C2CC(c3ccccc3OC)n3nc(N)nc3N2)c1 (stereo not drawn); cell line = MEF with TRE-FLAG-LMNB1; assay = LMNB1 reduction, high-content screening; EC50 = > 250000 nM
Structure (SMILES) = O=C1N=C(N2CCCCC2)S/C1=C\c1ccccc1O; cell line = NG108-15; assay = intracellular chloride reduction, Clomeleon fluorescence; conditions = 5 h; EC50 = 31500 nM
Structure (SMILES) = COc1cccc(C2CC(c3ccccc3Cl)Nc3ncnn32)c1 (stereo not drawn); cell line = MEF with TRE-FLAG-LMNB1; assay = LMNB1 reduction, high-content screening; EC50 = > 150000 nM
Structure (SMILES) = COc1cnc2cccc(N3CCc4c(cc(Cn5ccnc5C)cc4-c4cn(C)nc4C(F)(F)F)C3=O)c2c1; cell line = LS-513; assay = cell growth, inhibitor; conditions = 120 h; EC50 = 1990 nM

Repeated from above:
Structure (SMILES) = C[C@H]1CNCCN1c1nccc(-c2noc3c2CCC[C@@]32CCCc3sc(N)c(C#N)c32)n1; cell line = Ba/F3, IL3-dependent; assay = cell proliferation; conditions = 72 h, together with: IL3; EC50 = 3440 nM
Structure (SMILES) = C[C@]1(c2nc3c(C(N)=O)cccc3[nH]2)CCCN1; cell line = CAPAN-1 (BRCA2-deficient); assay = cell proliferation, CellTiter-Glo; conditions = 168 h; EC50 = 9400 nM
Structure (SMILES) = c1cc(N2CCCC2)ccc1-c1cc2ncc(OCC3CCNCC3)nc2cc1-c1ccc(N2CCCC2)cc1; cell line = Kasumi-1; assay = cell growth, XTT; conditions = 7 days; EC50 = 8500 ± 320 nM
